Measured values from different studies.

SMILES | assay | test system | conditions | half-life [h]
Oc1ccc(C(c2ccc(O)cc2)(C(F)(F)F)C(F)(F)F)cc1 | – | female rat, plasma | oral, 340 mg/kg, single dose | 44.4
CNCc1ccc(-c2[nH]c3cc(F)cc4c3c2CCNC4=O)cc1 | – | human patients, plasma | oral, 500 mg once daily, day 1, single dose, arithmetic mean | 15
CC(C)(c1ccc(O)cc1)c1ccc(O)cc1 | GC-MS | exposure tank water with snails, charcoal-filtered tap water | 500 ng/L nominal, 22 °C | 6.35
C#C[C@]1(CO)O[C@@H](n2cnc3c(N)nc(F)nc32)C[C@@H]1O | – | human, plasma | oral, 100 mg, single dose, fasted, healthy volunteers | 58.9
CCCC[C@H](NC(C)=O)C(=O)N[C@H]1CCC(=O)NC[C@@H](C(=O)N[C@@H](Cc2c[nH]c3ccccc23)C(N)=O)NC(=O)[C@H](CCCNC(=N)N)NC(=O)[C@@H](Cc2ccccc2)NC(=O)[C@H](Cc2c[nH]cn2)NC1=O | – | male rat, plasma | subcutaneous, 1 mg/kg/day, multiple doses, once daily | 0.661
Cn1c(-c2ccc(C(N)=O)cc2F)nnc1C(C)(C)Oc1c(F)cc(Cl)cc1F | – | elderly non-Japanese subjects, plasma | oral, 20 mg single dose, day 1, mean | 15.9
Nc1ccc(-c2nc([C@H]3CCc4cc(-c5cc(Cl)ccc5-n5cnnn5)cc(=O)n43)c(F)[nH]2)c(F)n1 | – | human, plasma | oral, 80 mg, single dose, fasted | 17.1
Cc1nc2cccc(OCC(C)(C)C(=O)NC(C)C)c2c(N)c1C(=O)O | – | female Sprague-Dawley rat, plasma | oral gavage, 10 mg/kg, day 7 | 1.17
CCCOc1ccc([C@H]2CNC(=O)N2c2ccc3[nH]cnc3c2)cc1 | – | human, plasma | oral, 500 mg, multiple doses, twice daily, fasted | 7.58
COc1cccc(-c2ccc(NC(=O)C3=C(C(=O)O)CCC3)c(F)c2)c1 | – | male human, plasma | oral, 40 mg, multiple doses, once daily | 28.6
C[C@@H]1CCC[C@H](n2cnc(-c3cc(Cl)ccc3-n3cc(Cl)nn3)cc2=O)c2cc(ccn2)-c2c(cnn2C(F)F)NC1=O | – | human, plasma | oral, 20 mg, single dose, fasted, healthy volunteers | 8.3
Cc1cc(C(=O)NC(C)(C)COc2cccc3c2C(N)=NS(=O)(=O)N3)cc(C)n1 | – | male Sprague-Dawley rat, plasma | oral, 100 mg/kg, single dose | 0.842
C=CC(=O)Nc1cc(Nc2ncc(C(=O)OC(C)C)c(-c3cn(C)c4ccccc34)n2)c(OC)cc1N(C)CCN(C)C | – | human, plasma | oral, 20 mg, single dose, fasted, healthy volunteers | 18.1

For quick reference, copied from above:
SMILES | assay | test system | conditions | half-life [h]
COc1cccc(-c2ccc(NC(=O)C3=C(C(=O)O)CCC3)c(F)c2)c1 | – | male human, plasma | oral, 40 mg, multiple doses, once daily | 28.6
